Results collected from several papers.
Numbered parts are unrelated; each lists some results of a single study. Substitutions count along the parent as printed.
Chain of UniProt P60842 (whole entry, looked up): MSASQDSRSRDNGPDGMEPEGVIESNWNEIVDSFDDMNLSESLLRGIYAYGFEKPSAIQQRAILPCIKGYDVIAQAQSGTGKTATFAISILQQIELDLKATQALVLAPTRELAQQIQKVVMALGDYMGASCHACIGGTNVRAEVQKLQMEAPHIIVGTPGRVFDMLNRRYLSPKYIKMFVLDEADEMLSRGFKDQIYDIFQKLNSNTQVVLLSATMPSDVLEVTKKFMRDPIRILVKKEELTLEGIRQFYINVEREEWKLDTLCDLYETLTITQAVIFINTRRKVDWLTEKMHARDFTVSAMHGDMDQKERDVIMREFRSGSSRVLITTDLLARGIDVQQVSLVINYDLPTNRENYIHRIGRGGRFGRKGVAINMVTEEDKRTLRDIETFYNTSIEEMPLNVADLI
Chain of UniProt P9WI81 (whole entry, looked up): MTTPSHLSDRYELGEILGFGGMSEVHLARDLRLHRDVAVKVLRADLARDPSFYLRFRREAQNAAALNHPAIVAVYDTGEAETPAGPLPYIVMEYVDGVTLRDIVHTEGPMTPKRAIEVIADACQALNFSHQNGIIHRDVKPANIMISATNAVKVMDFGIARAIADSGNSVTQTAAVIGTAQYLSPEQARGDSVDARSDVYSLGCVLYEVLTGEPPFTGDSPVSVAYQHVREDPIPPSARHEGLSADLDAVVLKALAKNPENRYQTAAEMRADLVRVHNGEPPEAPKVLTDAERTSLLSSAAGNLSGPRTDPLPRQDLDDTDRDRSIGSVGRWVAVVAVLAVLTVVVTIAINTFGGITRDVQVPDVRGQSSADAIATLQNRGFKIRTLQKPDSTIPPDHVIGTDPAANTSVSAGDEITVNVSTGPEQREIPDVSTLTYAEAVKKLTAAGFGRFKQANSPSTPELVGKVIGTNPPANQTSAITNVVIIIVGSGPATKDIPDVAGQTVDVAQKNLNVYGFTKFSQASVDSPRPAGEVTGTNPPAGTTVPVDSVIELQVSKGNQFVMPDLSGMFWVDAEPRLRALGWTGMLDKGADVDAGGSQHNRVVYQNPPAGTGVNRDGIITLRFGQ

Block 1
Target: Sal-like protein 4, full length isoform A (SALL4, Homo sapiens, UniProt Q9UJQ4, residues 1-1053)
Chain of UniProt Q9UJQ4 (whole entry, looked up): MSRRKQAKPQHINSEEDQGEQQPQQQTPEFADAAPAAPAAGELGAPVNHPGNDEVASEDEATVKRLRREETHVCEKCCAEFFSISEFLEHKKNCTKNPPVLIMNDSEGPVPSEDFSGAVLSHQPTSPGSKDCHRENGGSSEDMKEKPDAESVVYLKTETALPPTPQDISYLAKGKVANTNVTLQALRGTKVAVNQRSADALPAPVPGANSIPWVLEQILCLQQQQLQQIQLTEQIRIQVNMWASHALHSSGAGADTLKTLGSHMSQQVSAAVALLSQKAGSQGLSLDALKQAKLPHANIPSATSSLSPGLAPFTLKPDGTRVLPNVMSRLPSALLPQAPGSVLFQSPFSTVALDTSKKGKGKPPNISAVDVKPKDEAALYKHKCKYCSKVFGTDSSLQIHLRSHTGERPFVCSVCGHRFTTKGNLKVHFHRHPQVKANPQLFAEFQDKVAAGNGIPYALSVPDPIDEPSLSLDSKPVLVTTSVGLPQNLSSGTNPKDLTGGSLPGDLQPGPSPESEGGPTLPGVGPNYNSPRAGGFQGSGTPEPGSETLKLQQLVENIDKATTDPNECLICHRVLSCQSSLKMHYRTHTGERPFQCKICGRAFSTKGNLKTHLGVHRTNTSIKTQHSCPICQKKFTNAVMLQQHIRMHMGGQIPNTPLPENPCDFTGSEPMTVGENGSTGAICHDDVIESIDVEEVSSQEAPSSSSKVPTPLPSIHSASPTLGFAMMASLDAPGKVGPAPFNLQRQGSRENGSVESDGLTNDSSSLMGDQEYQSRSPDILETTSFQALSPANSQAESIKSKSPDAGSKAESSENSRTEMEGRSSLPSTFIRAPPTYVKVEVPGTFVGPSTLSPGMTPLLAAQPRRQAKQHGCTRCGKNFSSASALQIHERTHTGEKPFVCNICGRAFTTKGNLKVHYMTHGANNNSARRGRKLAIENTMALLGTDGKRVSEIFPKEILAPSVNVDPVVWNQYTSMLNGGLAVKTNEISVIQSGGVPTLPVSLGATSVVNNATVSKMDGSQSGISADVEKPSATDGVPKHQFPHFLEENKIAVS
Method: universal PBM
Form: double-stranded DNA, one strand shown
Medium: in vitro
Tested at: 600 nM
Notes: 8-mer, flanks averaged, mean of replicates
Direction: higher = stronger binding
| Sequence | E-score |
| --- | --- |
| AGCCCGCC | -0.386 |
| CCGCTTCC | -0.264 |
| CAGTGTCG | -0.258 |
| CGTAGCGA | -0.145 |
| CTCTGGAC | -0.128 |
| GACCTCTA | -0.177 |
| TACGTAGA | 0.109 |
| CGGGTATC | -0.214 |

Block 2
Target: OGT, full length, His-tagged (human)
Method: phage display, sequencing
Medium: in vitro
Tested at: 1 µg OGT
Notes: single substitutions, 15-mer displayed peptide, unchanged parent 5.27
Reference: input library
Direction: higher = stronger binding
Starting sequence: peptide; GDFPVMFMPKYSIIY
| Variant | fold enrichment [fold] |
| --- | --- |
| GDFPVMFMPKYSTIY [I13T] | 0.862 |
| GDFPVMFMPKYSIAY [I14A] | 0.668 |
| GTFPVMFMPKYSIIY [D2T] | 5.82 |
| GKFPVMFMPKYSIIY [D2K] | 7.1 |
| GDFPVMFMPGYSIIY [K10G] | 1.24 |
| GDFRVMFMPKYSIIY [P4R] | 7.12 |
| GDFPVMFMPKPSIIY [Y11P] | 1.11 |
| GDFDVMFMPKYSIIY [P4D] | 9.79 |

Mixed results
P1: viral docking peptide; CKVKRKLFGSENI; partner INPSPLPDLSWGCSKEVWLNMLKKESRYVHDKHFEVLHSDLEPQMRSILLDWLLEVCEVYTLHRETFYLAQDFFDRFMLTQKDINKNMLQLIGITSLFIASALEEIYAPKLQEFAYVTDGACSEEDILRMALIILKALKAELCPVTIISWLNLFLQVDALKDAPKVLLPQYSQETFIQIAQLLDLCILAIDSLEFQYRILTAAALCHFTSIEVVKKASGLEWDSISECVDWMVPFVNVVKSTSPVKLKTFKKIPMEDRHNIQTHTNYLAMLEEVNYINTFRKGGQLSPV
| Substance | target or system | assay | system | setting | scale | quantity | value |
| --- | --- | --- | --- | --- | --- | --- | --- |
| MYH9 (Homo sapiens, UniProt P35579) | MYL6 (Homo sapiens, UniProt P60660) | cross-linking MS | cell fractions | with: DSSO | – | cross-linked residues | K1459 to K81 |
| COC(=O)[C@@H]1[C@@H](c2ccccc2)[C@]2(c3ccc(OC)cc3)Oc3cc(OC)cc(OC)c3[C@@]1(O)[C@H]2O | Eukaryotic initiation factor 4A-I (EIF4A1, Homo sapiens, UniProt P60842) | RNA clamping, fluorescence polarization | – | concentration not given, mean of two replicates, with: FAM-labelled poly r(AG)8 RNA | – | fluorescence polarization change | 6.5 mP |
| SPTLC1 (Homo sapiens, UniProt O15269) | HDAC10 (Homo sapiens, UniProt Q969S8) | cross-linking MS | cell fractions | with: DHSO | – | cross-linked residues | E400 to E67 |
| O=C(NCc1ncc(C(F)(F)F)cc1Cl)c1ccc2c(c1)C1(CCS(=O)(=O)CC1)[C@H](C1CC1)N2S(=O)(=O)c1ccc(F)cc1 | Serine/threonine-protein kinase PknB (pknB, Mycobacterium tuberculosis, UniProt P9WI81) | cell-free assay, competition with immobilised ligand | – | 1 µM | – | remaining binding | 96% |
| SLC39A11 (Homo sapiens, UniProt Q8N1S5) | MACF1 (Homo sapiens, UniProt Q9UPN3) | cross-linking MS | cell fractions | with: DSSO | – | cross-linked residues | K163 to K3807 |
| P1 I13A | CCNE2, cyclin fold, Cln2 fusion (human) | yeast growth competition, sequencing | yeast | strong parent motif | reference: not given, higher = stronger binding | normalised enrichment score | 3.92 |
| EIF3CL (Homo sapiens, UniProt B5ME19) | EIF3A (Homo sapiens, UniProt Q14152) | cross-linking MS | – | hits only | – | interaction screen | cross-linked |

Excerpt of the above (mixed results):
| Substance | target or system | assay | system | setting | scale | quantity | value |
| --- | --- | --- | --- | --- | --- | --- | --- |
| SLC39A11 (Homo sapiens, UniProt Q8N1S5) | MACF1 (Homo sapiens, UniProt Q9UPN3) | cross-linking MS | cell fractions | with: DSSO | – | cross-linked residues | K163 to K3807 |
| P1 I13A | CCNE2, cyclin fold, Cln2 fusion (human) | yeast growth competition, sequencing | yeast | strong parent motif | reference: not given, higher = stronger binding | normalised enrichment score | 3.92 |
